Experimental data of several laboratories.
Parts stem from different laboratories: compare values within a part only.

Set 1
Target: Ras GTPase-activating protein-binding protein 1, full length (G3BP1, Homo sapiens, UniProt Q13283)
UniProt Q13283, sequence (whole entry, looked up): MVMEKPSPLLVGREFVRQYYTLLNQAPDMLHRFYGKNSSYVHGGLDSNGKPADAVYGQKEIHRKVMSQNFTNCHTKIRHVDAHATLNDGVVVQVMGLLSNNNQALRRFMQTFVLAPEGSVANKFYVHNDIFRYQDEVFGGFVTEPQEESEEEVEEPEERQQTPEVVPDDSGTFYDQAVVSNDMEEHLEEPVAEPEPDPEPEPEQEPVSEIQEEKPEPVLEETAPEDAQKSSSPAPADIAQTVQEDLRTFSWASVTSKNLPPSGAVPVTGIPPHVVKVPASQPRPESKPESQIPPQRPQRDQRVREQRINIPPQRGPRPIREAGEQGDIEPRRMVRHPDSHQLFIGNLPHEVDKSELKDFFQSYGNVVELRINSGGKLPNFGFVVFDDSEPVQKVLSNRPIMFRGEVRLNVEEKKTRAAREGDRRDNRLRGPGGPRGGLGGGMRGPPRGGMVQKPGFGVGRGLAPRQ
Method: RNA Bind-n-Seq
Form: RNA
Matrix: in vitro
Concentration: 200 nM
Notes: whole 134-nt RNA, ends assumed
With: 150 mM KCl
Reference: input library
Reading: higher = stronger binding
Shared flanks, not repeated: GGGAGUUCUACAGUCCGACGAUC … UGGAAUUCUCGGGUGUCAAGG
The log2 enrichment of `GCAGGAAGUAAAAACAAAUGGAAAUGCUUCGGAUAGUGGCAGGGGUGGGGGUUGCUAAGGAAAGGGUGGGAUGGGAGUUGGUAAAGAGUU` is reported as 0.523.
`CUGUGCUACACAUCGUAUGUACCGAAUCGGGGAAAAAAAGGGGAAAAAAAGGAAAAAAAGGAAAGUAUUAUGUUACGCCGUUCGGAUCUG` gave a log2 enrichment of -0.502.
With `UCAAGUCCUGUGCUACACAUCGUAUGUACCGAAUCGGGCCCGGGGCCCGGCCCGGAAAGUAUUAUGUUACGCCGUUCGGAUCUGCACUUC` the log2 enrichment was -1.38.
With `UCAAGUCCUGUGCUACACAUCGUAUGUACCGAAUCGGGUUUGGGUGGGUUUGGGAAAGUAUUAUGUUACGCCGUUCGGAUCUGCACUUCC` the log2 enrichment was 1.04.
`UAACUUUAGAGGAGGAUCUGAUGGAUAUGGCAGUGGACGUGGAUUUGGGGAUGGCUAUAAUGGGUAUGGAGGAGGACCUGGAGGUUGCAA` has a log2 enrichment of 0.0687.
`CAAGUCCUGUGCUACACAUCGUAUGUACCGAAUCGGGUUUUUUUGGGAGGGAGGGAAAGUAUUAUGUUACGCCGUUCGGAUCUGCACUUC` has a log2 enrichment of 0.53.
For `CUCAAGUCCUGUGCUACACAUCGUAUGUACCGAAUCGGGAAGGAAGGGGAAGGGAAAGUAUUAUGUUACGCCGUUCGGAUCUGCACUUCC`, the log2 enrichment was 1.18.
`CAAGUCCUGUGCUACACAUCGUAUGUACCGAAUCAAAUUUAAACCCAAACCCAAAAAAGUAUUAUGUUACGCCGUUCGGAUCUGCACUUC` has a log2 enrichment of -0.487.
`CAAGUCCUGUGCUACACAUCGUAUGUACCGAAUCGGGGUGGGGUGGGGUUUGGGGAAAGUAUUAUGUUACGCCGUUCGGAUCUGCACUUC` gave a log2 enrichment of 0.802.
`GCAGGAAGUAAAAACAAAUGGAAAUGCAUCGGAUAGUGGCAGGGGUGGGGGUUGCUAAGGAAAGGGUGGGAUGGGAGUGGGUAAAGAGUU` gave a log2 enrichment of 1.16.
`CUGUGCUACACAUCGUAUGUACCGAAUCGGGCCCCCCCGGGGCCCCCCCGGGGCCCCCCCGGAAAGUAUUAUGUUACGCCGUUCGGAUCU` gave a log2 enrichment of -2.13.
`UGUGCUACACAUCGUAUGUACCGAAUCGGGGUUUUUUUGGGGUUUUUUUGGGUUUUUUUGGGAAAGUAUUAUGUUACGCCGUUCGGAUCU` gave a log2 enrichment of -0.712.
`CACAGACAACACGCACCCACACAGACACAGAGGGAAGGGGUUGGGAUGGGGAAAAGGUGCACAGCAGGGCGGGGUAGGACCCCAGCCCCU` has a log2 enrichment of 1.85.
The log2 enrichment of `UGGGAGGUGGAUUUUGUUUAUUUUUUUAGCUCAUUUCCAGGGGUGGGAAUUUUUUUUUAAUAUGUGUCAUGAAUAAAGUUAUUUUUGAAA` is reported as 0.136.

Set 2
Target: Histone acetyltransferase KAT6A, winged helix 2, GST fusion (KAT6A, Homo sapiens, UniProt Q92794, residues 85-181)
Method: protein binding microarray
Form: double-stranded DNA, one strand shown
Matrix: in vitro
Concentration: not given
Notes: 8-mer, flanks averaged, mean of 2 arrays, mostly near background
Reference: not given
Reading: higher = stronger binding
Construct (chain): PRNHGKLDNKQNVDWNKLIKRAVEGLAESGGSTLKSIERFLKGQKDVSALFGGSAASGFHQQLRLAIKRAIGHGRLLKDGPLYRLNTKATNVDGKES
`CCCGCCTA` gave an E-score of 0.198.
`GATAGCCC` gave an E-score of -0.0119.
`CGGATAGA` has an E-score of 0.142.
With `GAGTGGGC` the E-score was -0.0502.
`CGAATGGA` gave an E-score of 0.0311.
`ACTTAAGG` gave an E-score of -0.0741.
`AATCTCCC` has an E-score of -0.0411.
`CACTTGAG` gave an E-score of -0.0738.
With `GACCCATA` the E-score was -0.113.
With `ATATTAAA` the E-score was 0.211.
With `GAAGTCTC` the E-score was -0.175.
`AAAGGAGG` has an E-score of 0.04.
For `AGGGCCGC`, the E-score was 0.0941.
With `CAAACTGA` the E-score was -0.00615.
For `ACGAGCTG`, the E-score was -0.00803.
For `CGTCTCAG`, the E-score was 0.0279.
With `CCAGAATA` the E-score was -0.0658.
The E-score of `CCTAGGCG` is reported as 0.0261.
For `CACGTGCG`, the E-score was -0.0509.
`CCGCTTGA` gave an E-score of 0.169.

Set 3
Target: RNA binding protein fox-1 homolog 2, RRM domain, GST-SBP tag (RBFOX2, Homo sapiens, UniProt O43251-10, residues 100-194)
Method: RNA Bind-n-Seq
Form: RNA
Matrix: in vitro
Concentration: 365 nM
Notes: natural RNA segment, single round, ends assumed
Reference: no-protein control
Reading: higher = stronger binding
Shared flanks, not repeated: GGGAGUUCUACAGUCCGACGAUC … UGGAAUUCUCGGGUGCCAA
Target sequence (chain): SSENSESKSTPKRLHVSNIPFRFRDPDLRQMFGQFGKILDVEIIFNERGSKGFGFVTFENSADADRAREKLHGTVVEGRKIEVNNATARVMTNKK
`AGCCAUUUAUUGAAUUCAACUUUUUGCCAAGGAAGCUUAUCUCAAGGGAAAUGCAGUUUUUUAAUAGGCUUAUCCAGGAAAUGUUACAGUCUCUUUAACGACAGCUAUAG` — result for “RBNS enrichment (R)”: 0.478.
Under “RBNS enrichment (R)”, `GCAGUCUGAUUGCUGUGUUACAAGGACCCAGCUGAGCUGAUGUCAUUCGCACUGCCUCUGUUGCUUCUGGCUGACCAGACCUCAUGGCCCUGCACUAGACACCCGACCCU` is recorded as 0.311.
Under “RBNS enrichment (R)”, `UGUUCUUUAAACUCUAGGAUCCAUCUUUGGACCAAAAGUCUGGUCUGGGCCUAGGAUGGCAUUGGCCCUCGAUGCUAGAGUUGGCUGCAUUCUCUCCUUACCUGCAGACU` is recorded as 0.638.
`AGCCAUCACCUUGGACCACCAAGCCUUGAAUGGUGUUGCCAGUUGGCUCCUCCUGGGGAGGACUUUUGUCACUCUUCAGCCAAGAAGCAGCUCUGUGCACCUGUGUGUGA` — result for “RBNS enrichment (R)”: 0.401.
`AAUGAAAGAUAGUGAUCUUUUAGGCCUUCAUUUAUCUUCUAAAAUUCCUCAUCUCAAGGCCACCAGUCCCCAGUUAUCACCCUUGGAAAUCCUCUGUUUAGCUUAGUUGC` — result for “RBNS enrichment (R)”: 0.577.
`UCUUGGCUUCCUGAUGGGAUCUCUUCUAGUGCAGUCCAGAUAGGGCUUGCAAUAUGAACCUUGGAAACUCAUAUAGCUGGGUGUUUGUUGAAGACUCUGCAUCUCACUGA`: “RBNS enrichment (R)” 0.623.
`CUCCUUUUCCCACUGUGCCAGGGAAGGUAGGUUUCUCUGGCUGACUGAGUACUGUGAGUGAGGCAACACUGAUGCCAGCAUGGGUCUUACUUGACUGGGGAGUAGGCUGA` — result for “RBNS enrichment (R)”: 2.29.
For `UGUCUAAAGUAUGUGAUGUCUUCAUCAUAGUAUGAAGUGUUGAAAAUUAAUAACGAGCCUAGUUUAGGAAAAAGCUGCUUAAAACUGUGGCUCUAAGAGAGUAAUCAUAA`, “RBNS enrichment (R)” read 0.338.
`GCGGAUCAUGAGGUCAGGAGAUCAAGACCACCCUGGCUAACACGGUGAAACCCCAUCUCUACUAAAAAUAAAAAAAAAAAUUAGCCGGGUUUGGUGGCGUAUGCCUGUAA`: “RBNS enrichment (R)” 0.475.
`ACACAAGAAAGAAUGCAAAAACAAAAGUGAUUUUUUAAAAAUGAGGUUAAAUCGAUUUUGCAUCAGUCACUGAACUGUCAGCUACGUGGCAGGAACCGGACGGAAGAAUC`: “RBNS enrichment (R)” 0.773.
For `ACAGUGUACAGCCUUUGACAAACUAGAAAUAUUAGAGUAGGCCAAACACACCUCCAAACUGUAAGGCUGUGCACAAACAUAAAAAAUGGCAGCCUUCCAUCUCCUGCACU`, “RBNS enrichment (R)” read 0.299.
`CUUUGGAACACAGGGUAUGCCUCUGGUUAAUAAGCUAAGCAAUAAAAUUACACGAAAUAUAAAUGUUAAUGCUUUGUUUUAAAAAGCUAAGCCAGCAUUUACUAAGUUGG` — result for “RBNS enrichment (R)”: 0.297.

Set 4
Target: RING finger protein unkempt homolog, zinc fingers 1-6, GST-SBP tag (UNK, Homo sapiens, UniProt Q9C0B0, residues 30-357)
UniProt Q9C0B0, sequence (30-357, looked up): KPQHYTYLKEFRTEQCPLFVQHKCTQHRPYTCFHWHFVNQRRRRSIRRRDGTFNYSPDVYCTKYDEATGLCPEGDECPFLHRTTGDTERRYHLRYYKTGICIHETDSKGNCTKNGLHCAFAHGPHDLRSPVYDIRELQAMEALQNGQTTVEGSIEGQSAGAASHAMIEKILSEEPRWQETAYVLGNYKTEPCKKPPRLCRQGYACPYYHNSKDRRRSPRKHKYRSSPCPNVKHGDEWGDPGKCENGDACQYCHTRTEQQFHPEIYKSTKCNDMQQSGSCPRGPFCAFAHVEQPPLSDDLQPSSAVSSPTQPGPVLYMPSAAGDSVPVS
Method: RNA Bind-n-Seq
Form: RNA
Matrix: in vitro
Concentration: not given
Notes: RNA with constant flanks, ends assumed
Reference: input RNA pool
Reading: higher = stronger binding
Shared flanks, not repeated: GGGAGUUCUACAGUCCGACGAUC … CAACAGAGGAUUGAGCAUCA
For `UUGGUGUCUAGAGCUCACCAGCUAGUGAUGGAGGGAUAUAACUGGUGCCAUGACCGGAAUGCCGUAACGAUUUUCAGUGCUCCAAACUAUUGUUAUCGUUGUGGUAACCAAGCUGCAAUC`, the bound/input enrichment was 0.922 ratio.
`GCUGGUCAUCCUCUGGCCCAGAAUGAACGUUGUCUUCACAUGUUUUUACAGGAUGAAAUUACCGAUAAAAGCUAUACUCCAUCUAAAAUAAGACAUGCCUGAGUUUGGUGAGAAGAAGCA` has a bound/input enrichment of 0.266 ratio.
With `GUCAACCGUGUUACUAUACUCUGUGACAAAUUUAGUGGCCAUCCCAAAGGGUUUGCAUAUACCGAGUUCUCGGACAAAGAGUCAGUGAGGACGUCCCUGGCCUUAGAUGAGUCCCUGUUC` the bound/input enrichment was 0.711 ratio.
With `GGACUGGAGUACCUUGCGUGCAGUUAUGUCGGCGUCGGUAGUGUCUGUCAUUUCGCGGUUCUCCGAAGAGUACUUGAGCUCCACUCCGCAGCGUCUGAAGUUGCUGGACGCGUACCUGCU` the bound/input enrichment was 0.0812 ratio.
`GGCAUGAAGGAUGACCGUCGGGACAGAUACUCUGCGGGCAAAAGGGGUGGAUUUAAUACCUUCCGAGACAGGGAAAAUUAUGACAGAGGUUACUCUAGCCUGCUUAAAAGAGAUUUUGGG` gave a bound/input enrichment of 0.465 ratio.
The bound/input enrichment of `GGUGGGGUGGUCAUUGCCGUUUGAGCUGCUGAUUUUCAUGAGUCGCCUUCAAAACUCUCGUGCCGGGUUGACAAUGUGGGGGGGUGGGGGAUCCAGCUUAUUCUUUUAUUUUCAAGUCCA` is reported as 0.479 ratio.
For `GCUACUUUAACCUAUGAUAAUUAUUUACAAAAUUUUAACACUAACCAAACAAUGCAGAUCUCCGGGAUGAUUAAAGGCAGCAUUUGAUGAUAGCAGACAUUGUUACAAGGACAUGGUGAG`, the bound/input enrichment was 15.1 ratio.
The bound/input enrichment of `AUCUUAUUACAGGGACUUGCUGUGCUUGCCAAGGAAAGACCACCAAAUCCCAUCGAGUUCCCCGCAUCUUAUCUUUUAAAAAACAAGGCGCAGUUUGAAGAUCGAAAUUGAUUUCUUGGG` is reported as 0.225 ratio.
`GAUCCAAUGUUGCUGCAGUUUUUCAAGUCUCAAGGUUAUAGGGAUGGCCCAGGUAAUCCUCUCCGACAUAAUUAUGAAGGUACUUUAAGAGAUCUUCUACAGUUCUUCAAGCCUAGACAA` has a bound/input enrichment of 0.44 ratio.
For `UCCGGGCAGAAUGAGGAGUCUCCUCGGAAACGAAAAAAGGCCACGGAAGCCAUAGACUCUCUCCGGAAAUCUAAACGUCUUCGGAAUAGAAAGUAAAUUGGAAUGUGGUUCUAGUUCCAG`, the bound/input enrichment was 0.58 ratio.
The bound/input enrichment of `CUUAGAGAGCUUGAAGCUAAAGCCUACAAACAAAUUGAGGCCUGUGGUGGGAACCCUUCACCCGUGGCUUUAGUCAAGCACUUAAGUAAGAUGUUCACAGAAGAAAAUAAAUAAUACUAU` is reported as 0.829 ratio.

Set 5
Target: Sal-like protein 4, full length isoform A (SALL4, Homo sapiens, UniProt Q9UJQ4, residues 1-1053)
UniProt Q9UJQ4, sequence (whole entry, looked up): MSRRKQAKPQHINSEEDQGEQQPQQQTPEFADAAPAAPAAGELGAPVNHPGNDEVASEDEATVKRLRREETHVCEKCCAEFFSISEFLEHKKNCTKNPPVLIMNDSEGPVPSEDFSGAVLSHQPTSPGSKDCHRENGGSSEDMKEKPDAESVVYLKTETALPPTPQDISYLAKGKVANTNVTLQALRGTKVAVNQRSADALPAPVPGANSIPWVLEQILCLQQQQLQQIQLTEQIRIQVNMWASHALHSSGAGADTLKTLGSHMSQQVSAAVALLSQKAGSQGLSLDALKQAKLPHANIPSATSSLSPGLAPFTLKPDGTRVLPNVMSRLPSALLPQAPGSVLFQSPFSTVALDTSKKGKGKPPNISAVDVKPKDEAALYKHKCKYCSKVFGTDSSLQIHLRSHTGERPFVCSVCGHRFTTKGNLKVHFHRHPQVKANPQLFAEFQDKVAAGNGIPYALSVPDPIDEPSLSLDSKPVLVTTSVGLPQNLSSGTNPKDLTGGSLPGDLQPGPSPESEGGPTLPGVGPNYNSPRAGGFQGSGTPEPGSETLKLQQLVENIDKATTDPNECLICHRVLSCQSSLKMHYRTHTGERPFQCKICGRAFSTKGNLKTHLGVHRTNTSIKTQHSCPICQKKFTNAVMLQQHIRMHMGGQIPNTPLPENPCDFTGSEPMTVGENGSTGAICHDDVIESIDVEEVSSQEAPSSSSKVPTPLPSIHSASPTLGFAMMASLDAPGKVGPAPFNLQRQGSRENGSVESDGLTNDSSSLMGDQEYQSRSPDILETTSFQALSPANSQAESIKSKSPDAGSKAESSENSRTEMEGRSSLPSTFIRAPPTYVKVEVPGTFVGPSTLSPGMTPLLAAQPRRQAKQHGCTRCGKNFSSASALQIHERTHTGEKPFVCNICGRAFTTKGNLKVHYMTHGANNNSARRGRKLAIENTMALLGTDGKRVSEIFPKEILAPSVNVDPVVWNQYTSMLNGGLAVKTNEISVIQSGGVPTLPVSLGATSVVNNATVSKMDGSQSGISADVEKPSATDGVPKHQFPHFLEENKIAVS
Method: universal PBM
Form: double-stranded DNA, one strand shown
Matrix: in vitro
Concentration: 600 nM
Notes: 8-mer, flanks averaged, mean of replicates
Reading: higher = stronger binding
`CCTCACAG` gave an E-score of -0.103.
`ATTGATAG` gave an E-score of 0.204.
`ATCGTGAA` gave an E-score of 0.0889.
`CGAGTCGA` gave an E-score of -0.111.
For `CCACGAGC`, the E-score was -0.192.
For `CTCGTATC`, the E-score was 0.0346.
The E-score of `GAGACCCC` is reported as -0.226.
The E-score of `CTGGAAAG` is reported as -0.126.
`CTGGCCTA` has an E-score of -0.187.
The E-score of `ATCCAATA` is reported as 0.189.
With `ACTGCGGA` the E-score was -0.212.
`GTCACCTA` gave an E-score of -0.127.
`ACGGAGCA` has an E-score of -0.103.
With `ACGGAGCG` the E-score was -0.174.
With `GATCCAAA` the E-score was 0.155.
For `CACAAGCC`, the E-score was -0.2.
With `ACGCCTCT` the E-score was -0.119.
The E-score of `ATGCAGCG` is reported as -0.168.
`CAGTGAGA` has an E-score of -0.0442.
With `GGGGAACC` the E-score was -0.321.
With `AGAATAAG` the E-score was 0.258.
With `TAGACTGA` the E-score was 0.108.
The E-score of `ATGTTGCC` is reported as -0.0649.
With `ACTTTGTA` the E-score was 0.146.
`CCAGCTCG` has an E-score of -0.335.
